Published values from different studies.
± marks the error that the study gave.
Cell line: K562

Structure (SMILES)	test	conditions	scale	quantity	result
O=C1Nc2ccccc2/C1=N\Nc1nnc2n1N=C(c1ccc(Cl)cc1)CS2	cell growth or viability, SRB	10 µM	–	inhibition	14%
O=C(/C=C/c1ccccc1)c1ccccc1O	cell viability	–	–	IC50	28 µM
COc1ccc(CN2C(=O)C(=O)c3cc(NC(C)=O)ccc32)cc1	western blot	1 to 10 µM, 24 h	–	Bcl-2 protein level	decreased
O=C(/C=C/c1ccc(O)cc1)c1ccc(O)cc1O	cell viability	–	–	IC50	44 µM
C(=C/c1ccccc1)/c1ccccc1	apoptosis, refers to: caspase-3 activity	24 h, lowest dose with significant induction	baseline: vehicle	lowest effective concentration	50 µM
O=C1c2ccc(O)cc2OC1(O)Cc1ccc(O)c(O)c1 (stereo not drawn)	MTT	72 h	baseline: IC50 MRC5 over IC50 K562	selectivity ratio	> 3.1
COc1cccc(/C=C/C(=O)c2ccccc2O)c1OC	cell viability	–	–	IC50	12 µM
CC(C)CCCC(C)C1CCC2C3CC=C4CC(OC(=O)CCC(=O)NCCCCCCNC(=O)O[C@H]5[C@@H](O)[C@H](n6cnc7c(=O)[nH]c(N)nc76)O[C@@H]5COP(=O)(O)OP(=O)(O)OP(=O)([S-])OC[C@H]5O[C@@H](n6c[n+](C)c7c(O)nc(N)nc76)[C@H](O)[C@@H]5O)CCC4(C)C3CCC12C (mixture of isomers)	annexin V/PI flow cytometry	20 µM, 20 h	–	apoptotic cells	60.8 ± 3.2%
CCC(=C(c1ccc(Cl)cc1)c1ccc(OCCCN(C)C)cc1)c1ccc(OC)cc1	cell growth or viability	–	–	GI50	1.06 µM
CC/C=C\C/C=C\C/C=C\C/C=C\C/C=C\C/C=C\CCC(=O)Nc1ccn(C2OC(CO)C(O)C2(F)F)c(=O)n1 (stereo not drawn)	NCI60 screen	–	–	TGI	46.9 µM
CC(=O)OC[C@H]1O[C@@H](Sc2sc(C(=O)c3ccc(Br)cc3)c(N)c2-c2nc3ccccc3s2)[C@H](OC(C)=O)[C@@H](OC(C)=O)[C@H]1OC(C)=O	SRB	10 µM, 48 h	–	growth	92.2%
COc1cc(O)c(C(=O)/C=C/c2ccc(O)cc2)c(OC)c1	NF-κB activity, inhibitor, luciferase	TNF-stimulated	–	IC50	8 µM
COc1cc(/C=C/C(=O)/C=C(O)/C=C/c2ccc(OCC(=O)N3CCOCCOCCOCCOCC3)c(OC)c2)ccc1OCC(=O)N1CCOCCOCCOCCOCC1	cell growth or viability, SRB	5 µM	–	inhibition	22.4%
COc1cc2c(c(OC)c1OC)CC(Cc1ccc3c(c1)OCCO3)C2 (stereo not drawn)	cell growth or viability, CCK-8	0.1 µM, 72 h	–	inhibition	3.98%
COc1ccc(/C=C/C(=O)c2c(O)cc(OC)cc2O)cc1	NF-κB activity, inhibitor, luciferase	TNF-stimulated	–	IC50	> 200 µM
Cc1ccc(C2=Nn3c(N/N=C4/C(=O)Nc5ccc(Br)cc54)nnc3SC2)cc1	cell growth or viability, SRB	10 µM	–	inhibition	14%
O=C(/C=C/c1ccc(O)cc1)c1ccccc1	NF-κB activity, inhibitor, luciferase	TNF-stimulated	–	IC50	24 µM
CC(=O)OC[C@H]1O[C@@H](Sc2sc(C(=O)c3ccc(C)cc3)c(N)c2-c2nc3ccccc3s2)[C@H](OC(C)=O)[C@@H](OC(C)=O)[C@H]1OC(C)=O	SRB	10 µM, 48 h	–	growth	90.6%

A few entries again:
Structure (SMILES)	test	conditions	scale	quantity	result
O=C(/C=C/c1ccccc1)c1ccccc1O	cell viability	–	–	IC50	28 µM
COc1ccc(CN2C(=O)C(=O)c3cc(NC(C)=O)ccc32)cc1	western blot	1 to 10 µM, 24 h	–	Bcl-2 protein level	decreased
O=C(/C=C/c1ccc(O)cc1)c1ccc(O)cc1O	cell viability	–	–	IC50	44 µM
